Published values gathered from unrelated publications.
Each line is one published result; not all experiments were run side by side. Values joined by “and” are separate records of one study, mostly repeats; a detail may differ. ± gives the spread as reported.

`CCN(Cc1ccccc1)C(=O)CCc1nc(CN2CCN(C(=O)Cc3ccc(OC)c(OC)c3)CC2)no1` — result for vital signs: “no effect” (mouse; intraperitoneal, up to 150 mg/kg).
With `CCCCC[C@@H]1OC(=O)[C@@H](C)N(C)C(=O)[C@H](CCCCC)N(C)C(=O)[C@@H](C)N(C)C(=O)[C@H](CCCCC)N(C)C(=O)[C@@H](C)N(C)C(=O)[C@H](CCCCC)OC(=O)[C@@H](C)N(C)C1=O` the log Papp was -5.35 (PAMPA; 500 µM, pH 7.4, UV/ELSD/MS detection).
Under “mean tissue distribution”, `CSCC[C@H](N)C(=O)N[C@@H](C)C(=O)N[C@@H](CCCNC(=N)N)C(=O)N[C@@H](CCCNC(=N)N)C(=O)N[C@@H](CC(=O)O)C(=O)N[C@@H](CCCCN)C(=O)N[C@H](C(=O)N[C@@H](CC(=O)O)C(=O)N[C@@H](Cc1ccccc1)C(=O)N[C@@H](C)C(=O)N[C@@H](CCCNC(=N)N)C(=O)N[C@@H](CCCNC(=N)N)C(=O)N[C@@H](CCCNC(=N)N)C(=O)N[C@@H](CCCNC(=N)N)C(=O)NCCCCCC(=O)NCCCCC(NC(=O)CCCCCNC(=O)[C@H](CCCNC(=N)N)NC(=O)[C@H](CCCNC(=N)N)NC(=O)[C@H](CCCNC(=N)N)NC(=O)[C@H](CCCNC(=N)N)NC(=O)[C@H](C)NC(=O)[C@H](Cc1ccccc1)NC(=O)[C@H](CC(=O)O)NC(=O)[C@@H](NC(=O)[C@H](CCCCN)NC(=O)[C@H](CC(=O)O)NC(=O)[C@H](CCCNC(=N)N)NC(=O)[C@H](CCCNC(=N)N)NC(=O)[C@H](C)NC(=O)[C@@H](N)CCSC)[C@@H](C)O)C(=O)NCCCCC(NC(=O)C(CCCCNC(=O)CCCCCNC(=O)[C@H](CCCNC(=N)N)NC(=O)[C@H](CCCNC(=N)N)NC(=O)[C@H](CCCNC(=N)N)NC(=O)[C@H](CCCNC(=N)N)NC(=O)[C@H](C)NC(=O)[C@H](Cc1ccccc1)NC(=O)[C@H](CC(=O)O)NC(=O)[C@@H](NC(=O)[C@H](CCCCN)NC(=O)[C@H](CC(=O)O)NC(=O)[C@H](CCCNC(=N)N)NC(=O)[C@H](CCCNC(=N)N)NC(=O)[C@H](C)NC(=O)[C@@H](N)CCSC)[C@@H](C)O)NC(=O)CCCCCNC(=O)[C@H](CCCNC(=N)N)NC(=O)[C@H](CCCNC(=N)N)NC(=O)[C@H](CCCNC(=N)N)NC(=O)[C@H](CCCNC(=N)N)NC(=O)[C@H](C)NC(=O)[C@H](Cc1ccccc1)NC(=O)[C@H](CC(=O)O)NC(=O)[C@@H](NC(=O)[C@H](CCCCN)NC(=O)[C@H](CC(=O)O)NC(=O)[C@H](CCCNC(=N)N)NC(=O)[C@H](CCCNC(=N)N)NC(=O)[C@H](C)NC(=O)[C@@H](N)CCSC)[C@@H](C)O)C(N)=O)[C@@H](C)O` (stereo partly shown) is recorded as 1.15% (C57BL/6 mouse female, femur; dose not given, 6 h; baseline: total).
`CSCC[C@H](NC(=O)CNC(=O)[C@H](CCCCN)NC(=O)[C@H](CC(C)C)NC(=O)[C@@H]1CCCN1C(=O)[C@H](CO)NC(=O)[C@H](Cc1c[nH]cn1)NC(=O)[C@H](Cc1c[nH]c2ccccc12)NC(=O)[C@H](CCCNC(=N)N)NC(=O)[C@H](CC(C)C)NC(=O)[C@H](CCCNC(=N)N)NC(=O)[C@H](Cc1c[nH]c2ccccc12)NC(=O)[C@H](CS)NC(=O)CCCCCNC(=O)CN1CCN(CC(=O)O)CCN(CC(=O)O)CCN(CC(=O)O)CC1)C(=O)O` [copper-64 labelled] has a tissue uptake of 15.1 ± 1.59 %ID/g (PET imaging; C57BL/6J mice bearing B16-F10 tumours, kidney; intravenous, 57.5 min).
For `C=C/C=C/C[C@@H](C)[C@@H](O)[C@H]1C(=O)N[C@@H](CC)C(=O)N(C)CC(=O)N(C)[C@@H](CC(C)C)C(=O)N[C@@H](C(C)C)C(=O)N(C)[C@@H](CC(C)C)C(=O)N[C@@H](C)C(=O)N[C@H](C)C(=O)N(C)[C@@H](CC(C)C)C(=O)N(C)[C@@H](CC(C)C)C(=O)N(C)[C@@H](C(C)C)C(=O)N1C`, “urinary Mg2+ excretion” read 288 ± 95 µmol/day (Wistar Kyoto rat, male, 24-hour urine; ip, 0.5 mg/kg/day, day 18).
`CC(=O)NCCCC[C@@H]1NC(=O)[C@H](Cc2c[nH]c3c(C)cccc23)NC(=O)[C@H]([C@@H](C)O)NC(=O)[C@H](CC(N)=O)NC(=O)[C@@H](NC(C)=O)C(C)(C)SSC(C)(C)[C@@H](C(=O)N[C@@H](Cc2ccc(OCCN)cc2)C(=O)N[C@@H](Cc2ccc3ccccc3c2)C(=O)NC2(C(=O)N[C@@H](CCC(=O)O)C(=O)N[C@@H](CC(N)=O)C(=O)N[C@@H](Cc3cccnc3)C(=O)N(C)CC(N)=O)CCOCC2)NC1=O` gave an unbound fraction of 52.1 ± 3.2% (equilibrium dialysis; rat, plasma; 0.1 µM).
For `CC(C)[C@@H]1NC(=O)CNC(=O)[C@H](CC(N)=O)NC(=O)[C@H](CCCNC(=N)N)NC(=O)[C@H](Cc2ccc(O)cc2)NC(=O)[C@H](C(C)C)NC(=O)[C@@H](NC(=O)[C@@H](NC(=O)[C@H](CC(N)=O)NC(=O)[C@H](Cc2c[nH]c3ccccc23)NC(=O)[C@H](C)NC(=O)[C@H](Cc2ccccc2)NC(=O)CNC(=O)[C@H](CCCCN)NC(=O)[C@H](Cc2ccccc2)NC(=O)[C@H](Cc2ccccc2)NC(=O)[C@H](CCCCN)NC(=O)OCC2c3ccccc3-c3ccccc32)C(C)C)CSSC[C@@H](C(=O)N[C@@H](Cc2c[nH]cn2)C(=O)N[C@@H](CCCNC(=N)N)C(=O)N[C@@H](CCCNC(=N)N)C(=O)N[C@@H](C)C(=O)N[C@@H](CC(N)=O)C(N)=O)NC(=O)[C@H](C(C)C)NC(=O)[C@H](CCCNC(=N)N)NC1=O`, the peptide remaining was 58.4% and 59.3% and 62.2% (HPLC; trypsin buffer; 1.00 h, 37 °C, added: trypsin 1 % w/v).
For `Cn1nc(NS(C)(=O)=O)c2c(Cl)ccc(-n3c([C@H](Cc4cc(F)cc(F)c4)NC(=O)Cn4nc(C(F)F)c5c4C(F)(F)[C@@H]4C[C@H]54)nc4nc(OCCC(F)(F)F)ccc4c3=O)c21`, the Cmax was 169 ng/mL (human, plasma; oral, 200 mg single dose, powder in bottle, geometric mean).
`CN1Cc2cc(Cl)ccc2-n2c(nnc2C2CCN(c3cccc(F)n3)CC2)C1` has a concentration of 8.98 ± 1.6 ng/mL (Sprague-Dawley rats male, brainstem; intravenous, 0.03 mg/kg, 5 min).
`C#Cc1c(F)ccc2cc(O)cc(-c3ncc4c(N5CC6CCC(C5)N6C(=O)OC(C)OC(=O)[C@@H](N)C(C)C)nc(OC[C@@]56CCCN5C[C@H](F)C6)nc4c3F)c12` (stereo partly shown) gave a t1/2 of 0.578 h (measured: prodrug; mouse whole blood; 1 µM).
For `N#[11C]c1ccc(-c2csc(NN=C3CCCC3)n2)cc1`, “uptake in blood” read 2.57 ± 0.68 %ID/g (C57BL/6 mouse, male; intravenous, 3 MBq, 60 min).
`Cc1nnc(-c2ccc(CC(=O)NCCCC[C@H](NC(=O)c3ccc(OCc4ccc(B(O)O)cc4)c(-c4nc5ccccc5c(=O)[nH]4)c3)C(=O)NCC(=O)NCC(=O)NCC(=O)N[C@@H](Cc3ccccc3)C(=O)N[C@@H](Cc3ccccc3)C(=O)O)cc2)nn1` gave a remaining compound of 89.6% (UPLC-MS/MS; human serum; 100 µM, 1.5 h, 37 °C).
`O=C1NC2(CC2)COc2ncc(F)cc2[C@H]2COCCN2c2ccn3ncc1c3n2` — result for “organ-to-brain weight ratio”: 2.92 ± 0.44% (Sprague-Dawley rat, male, adrenals; oral, 10 mg/kg/day, 4 weeks dosing, end of recovery).
The MRT(0-t) of `COCC12CCC(OC)C34C5CC6(O)C(OC)C(O)C(O)(C5C6OC(=O)c5ccccc5)C(C(OC)C13)C4N(C)C2` (stereo not shown) is reported as 5.83 ± 0.919 h (Sprague-Dawley rat, plasma; oral, dose not given, with NADES in PCW extract).
The tissue uptake of `CC[C@H](C)[C@H](NC(=O)[C@H](CCCCN)NC(=O)CNC(=O)[C@H](CC(C)C)NC(=O)[C@H](Cc1ccccc1)NC(=O)[C@H](CCCCN)NC(=O)[C@H](CO)NC(=O)[C@H](Cc1ccccc1)NC(=O)[C@H](Cc1c[nH]c2ccccc12)NC(=O)[C@H](CCC(N)=O)NC(=O)[C@@H](NC(=O)[C@H](Cc1ccccc1)NC(=O)CCCCCNC(=O)CN1CCN(CC(=O)O)CCN(CC(=O)O)CCN(CC(=O)O)CC1)C(C)C)C(=O)N[C@@H](CCC(=O)O)C(=O)N1CCC[C@H]1C(=O)N[C@H](CC(=O)O)C(=O)N[C@H](C(=O)N[C@@H](CO)C(=O)N[C@@H](CCC(N)=O)C(=O)N[C@H](C(=O)N[C@@H](CCC(N)=O)C(=O)N[C@@H](CC(=O)O)C(=O)N1CCC[C@H]1C(=O)N[C@@H](CC(N)=O)C(=O)N[C@@H](CC(=O)O)C(=O)N[C@@H](CCC(N)=O)C(=O)N[C@@H](Cc1ccc(O)cc1)C(=O)N[C@@H](CCC(=O)O)C(=O)N1CCC[C@H]1C(=O)N[C@@H](Cc1ccccc1)C(=O)O)C(C)C)C(C)C` [copper-64 labelled] is reported as 33.5 ± 3 %ID/g (female mice, EMT6 tumour-bearing, kidneys; 2 h, uncleavable control tracer, vehicle-treated).
`CCn1ccc(-c2cc(-c3cnn(C)c3)cc([C@@H](C)NC(=O)c3cc(OCCN(C)C)ccc3C)c2)n1` has a C0 of 6250 ng/mL (C57BL/6J mice, male, plasma; iv, 10 mg/kg).
`C/C(=N\OCCCN1CCCCC1)c1ccc(C(F)(F)F)cc1` gave an AUC(0-t) of 3930 ± 254 ng·h/mL (mouse, plasma; oral, 75 mg/kg twice daily, day 7).
For `CC(C)C[C@@H](NC(=O)[C@@H](CCCCN)NC(=O)CNC(=O)CNC(=O)[C@@H]1CSSC[C@H](N)C(=O)NCC(=O)N[C@@H](CCCNC(=N)N)C(=O)N[C@@H](CCCNC(=N)N)C(=O)N[C@@H](C)C(=O)NCC(=O)NCC(=O)N[C@@H](CO)C(=O)N1)C(=O)N[C@H](C)C(=O)N[C@H](CCCCN)C(=O)N[C@H](CC(C)C)C(=O)N[C@H](C)C(=O)N[C@H](CCCCN)C(=O)N[C@H](CCCCN)C(=O)N[C@H](CC(C)C)C(=O)N[C@H](C)C(=O)N[C@H](CCCCN)C(=O)N[C@H](CC(C)C)C(=O)N[C@H](C)C(=O)N[C@H](CCCCN)C(=O)O`, the MRT was 2.12 h (mouse, plasma; intravenous, 15 mg/kg).
`CC(CCC(=O)NCC(=O)O)C1CCC2C3CCC4CC(OC5OC(C(=O)O)C(O)C(O)C5O)CCC4(C)C3CC(O)C12C` (stereo not shown) gave a plasma concentration of 286 ng/mL (women, C/C genotype, plasma; dose not given, geometric mean).

For quick reference, copied from above:
`CN1Cc2cc(Cl)ccc2-n2c(nnc2C2CCN(c3cccc(F)n3)CC2)C1` has a concentration of 8.98 ± 1.6 ng/mL (Sprague-Dawley rats male, brainstem; intravenous, 0.03 mg/kg, 5 min).
